Published values gathered from unrelated publications.
Parts stem from different laboratories: compare values within a part only. Several values in a cell are separate wells, animals, samples, runs or records.

Sample 1 — technique: protein-binding microarray; molecule type: double-stranded DNA, one strand shown; sample: in vitro; concentration: 940 nM top; setting: 60-bp whole probe; added: salmon DNA 0.4 mg/ml; baseline: random background probes; reading: higher = stronger binding; measurement: fitted relative affinity; all sequences stand within: GCCTAGCAC … GTCTTGATTCGCTTGACGCTGCTG
Target: Interferon regulatory factor 5, full length, phosphomimetic (IRF5, Homo sapiens, UniProt Q13568-2, residues 1-514, S451D/S453D/S456D/S462D)
GACGATTTCGGGTATCGAGGCGTGCTA: 1.35 z-score
TTAGGTTCCCTTTTCCTCTAGTGCTAG: 0.735 z-score
TCAAGTTTTGAGCTCTGACTGTGCTAG: -0.446 z-score
TCAGTCCTCTCTCTATTACTGTGCTAG: 1.38 z-score
TAAGATTTCAGTTCCGATTAGTGCTAG: 1.72 z-score
TTAGGCTTCCTTTCCCTTTAGTGCTAG: 0.447 z-score
TTAGATATCGGGTATGGATTAGTGCTA: 0.747 z-score
TCAAGTTTCCATTTTCAACTGTGCTAG: 1.45 z-score
TTAGAACTGAGACTCGATTAGTGCTAG: 0.149 z-score
TCATTTTCCTAATTGAAACTGTGCTAG: 0.672 z-score

Sample 2 — technique: RNA Bind-n-Seq; molecule type: RNA; sample: in vitro; concentration: 1 µM; setting: whole 134-nt RNA, ends assumed; added: 150 mM KCl; baseline: input library; reading: higher = stronger binding; measurement: log2 enrichment
Target: Ras GTPase-activating protein-binding protein 1, RRM domain (G3BP1, Homo sapiens, UniProt Q13283)
UniProt Q13283, sequence (whole entry, looked up): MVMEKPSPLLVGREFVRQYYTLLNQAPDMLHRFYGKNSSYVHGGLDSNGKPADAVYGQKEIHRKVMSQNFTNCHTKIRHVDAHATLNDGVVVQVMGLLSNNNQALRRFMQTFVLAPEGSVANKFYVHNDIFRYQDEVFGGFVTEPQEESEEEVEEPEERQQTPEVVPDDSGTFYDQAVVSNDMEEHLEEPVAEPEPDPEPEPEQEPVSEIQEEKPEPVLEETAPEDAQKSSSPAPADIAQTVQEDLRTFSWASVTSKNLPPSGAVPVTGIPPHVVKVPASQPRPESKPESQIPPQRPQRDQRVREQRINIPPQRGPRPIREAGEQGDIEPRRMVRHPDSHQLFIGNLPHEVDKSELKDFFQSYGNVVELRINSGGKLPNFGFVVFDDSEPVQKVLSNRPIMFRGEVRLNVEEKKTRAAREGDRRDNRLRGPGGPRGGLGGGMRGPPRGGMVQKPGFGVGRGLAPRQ
All sequences stand within: GGGAGUUCUACAGUCCGACGAUC … UGGAAUUCUCGGGUGUCAAGG
ACCAUGCAGGUGGGCAUCUUUGGGAAGUGGGGCAAGGGGGAGAUAGGGAGGGGGGUAACACUUUGGGAACAGGUGGUCCCAGGUCGUUUC: 1.1
GUCCUGUGCUACACAUCGUAUGUACCGAAUCGGGGAAAGGGGUUUGGGGAAAAAGGGGAAAGUAUUAUGUUACGCCGUUCGGAUCUGCAC: 1.51
AGUCCUGUGCUACACAUCGUAUGUACCGAAUCGGAAAAAAAGGAAAGGAAAAAAAGGAAAGUAUUAUGUUACGCCGUUCGGAUCUGCACU: 0.0436
UCAAGUCCUGUGCUACACAUCGUAUGUACCGAAUCGGGUUGGGGUUGGGUUGGGAAAGUAUUAUGUUACGCCGUUCGGAUCUGCACUUCC: 0.663
UGCUUCAGACCAAGCGGAGCUCCCGGAGGCAAAGCCUGGAGCUGCAGAAGUGUGAAGAGAUCCUCCACAAGAUCGUGAAGUACCGCUUCA: -0.552
UCAAGUCCUGUGCUACACAUCGUAUGUACCGAAUCGGGGUUGGUUGGGGUUGGGAAAGUAUUAUGUUACGCCGUUCGGAUCUGCACUUCC: 0.127
AAGUCCUGUGCUACACAUCGUAUGUACCGAAUCGGGUUUGGGUUUUUUUGGGAGGGAAAGUAUUAUGUUACGCCGUUCGGAUCUGCACUU: 0.631
UAACUUUAGAGGAGGAUCUGAUGGAUAUGGCAGUGGACGUGGAUUUGGGGAUGUCUAUAAUGGGUAUGGAGGAGGACCUGGAGGUGGCAA: -0.249
AGUCCUGUGCUACACAUCGUAUGUACCGAAUCGGGAAAAAAAGGGUUUUUGGGAGGGAAAGUAUUAUGUUACGCCGUUCGGAUCUGCACU: 0.585

Sample 3 — technique: protein binding microarray; molecule type: double-stranded DNA, one strand shown; sample: in vitro; concentration: not given; baseline: not given; reading: higher = stronger binding; measurement: E-score
Target: Histone acetyltransferase KAT6A, both winged helices, GST fusion (KAT6A, Homo sapiens, UniProt Q92794, residues 1-181)
Setting: 8-mer, flanks averaged, mean of 2 arrays, mostly near background
Target sequence (chain): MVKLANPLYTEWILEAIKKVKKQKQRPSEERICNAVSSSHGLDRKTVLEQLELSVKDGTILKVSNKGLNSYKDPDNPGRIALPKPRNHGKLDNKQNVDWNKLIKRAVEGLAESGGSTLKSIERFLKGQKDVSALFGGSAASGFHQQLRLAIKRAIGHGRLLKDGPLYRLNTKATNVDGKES
GCGCGTCC: 0.338
GCGTAAGA: 0.154
GGGGACAA: -0.0344
CCCACTTA: -0.12
CCTTACTC: -0.0633
ACGTCACA: -0.12
CGTTATCC: -0.0638
GACGTATA: -0.0194
CTGGCAAA: -0.122

Further values, each from its own experiment
PhoQ, residues 284 288 289 292 302 303 SLANIV
fold induction (PhoP, residues 12 14 15 18 19 LWHSL (Escherichia coli, UniProt P23836); Sort-seq, measured: YFP reporter; E. coli; PhoQ-PhoP variant library, added: 10 µM Mg2+; baseline: high Mg2+ state, higher = stronger signaling): 15.1 and 8.68

A few entries again (sample 3):
GGGGACAA: -0.0344
CCCACTTA: -0.12
CCTTACTC: -0.0633
ACGTCACA: -0.12
